Measured values from different studies.
Protocols differ between the studies behind these lines. Several values in a cell are separate wells, animals, samples, runs or records. Numbers after ± are the reported error.

Compound | assay | system | setting | how to read | measurement | result
Cc1cc(-c2nccc3c2ccn3CC(=O)Nc2ccc(-c3cnccn3)cn2)ccn1 | – | healthy human volunteers | oral, 20 mg single dose, single ascending dose | – | general disorder TEAEs | 16.7%
OCc1nc2ccc(NCc3ccc(C(F)(F)F)cc3)cc2[nH]1 | – | human liver S9 | 1 µM, pH 7.4 | – | CLint | 3.6 µL/min/mg
Cc1ccc(C)c(N2C(=O)c3ccc(-c4nc(-c5ccc6[nH]nnc6c5)no4)cc3C2=O)c1 | dynamic light scattering | buffer | 20 µM | – | hydrodynamic radius | 2.64 nm
CCn1cc(C(=O)N2CCOCC2)c(=O)c2cc(NC3Cc4ccccc4C3)cnc21 | – | human female, fed, plasma | oral, 900 mg twice daily, day 1, tablet, arithmetic mean | – | Cmax | 5230 ng/mL
O=C(/C=C/CN1CCCCC1)Nc1cc2c(Nc3ccc(F)c(Cl)c3)ncnc2cc1O | – | human, plasma | oral, 30 mg dacomitinib | – | metabolite to parent Cmax ratio | 0
NC(=O)N1c2ccccc2C=Cc2ccccc21 | item: musculoskeletal disorders (SOC) | human male | oral, dose not given, AEs, treatment-related, on drug, CTCAE | – | adverse events incidence | 13%
CN(C(=O)C(C)(C)c1cc(C(F)(F)F)cc(C(F)(F)F)c1)c1cnc(N2C[C@H]3COCCN3C[C@H]2CO)cc1-c1ccc(F)cc1[14CH3] | item: total radioactivity | human, plasma | oral, 120 mg | – | %AUC extrapolated | 10.5%
O=C(OC(C(F)(F)F)C(F)(F)F)N1CCN(Cc2cccc(Oc3ccccc3)c2)CC1 | PET blocking study | rhesus monkey, brain OCC | 0.03 mg/kg, compound pretreatment, with: [18F]T-401 tracer | – | Ktrans | 0.0008 min⁻¹
CC(C)c1nc(CN(C)C(=O)N[C@@H](CCN2CCOCC2)C(=O)N[C@H](CC[C@H](Cc2ccccc2)NC(=O)OCc2cncs2)Cc2ccccc2)cs1 | – | human | oral, 150 mg, drug interaction trial | – | grade 2 TEAE | 7.7%
C[C@H](NC(=O)[C@H](CCC(N)=O)NC(=O)[C@H](C)NC(=O)[C@H](CCCNC(=N)N)NC(=O)[C@H](CCC(N)=O)NC(=O)[C@H](C)NC(=O)[C@H](CCCNC(=N)N)NC(=O)[C@H](CCC(N)=O)NC(=O)[C@H](C)NC(=O)[C@H](CCC(N)=O)NC(=O)[C@H](CCCNC(=N)N)NC(=O)[C@H](C)NC(=O)[C@H](CCC(N)=O)NC(=O)[C@H](CCCNC(=N)N)NC(=O)[C@H](C)NC(=O)[C@H](CCC(N)=O)NC(=O)[C@H](C)NC(=O)[C@H](CCCNC(=N)N)NC(=O)[C@H](CCC(N)=O)NC(=O)[C@H](C)NC(=O)[C@H](CCCNC(=N)N)NC(=O)[C@H](CO)NC(=O)[C@H](Cc1ccc(O)c(I)c1)NC(=O)CNC(=O)CNC(=O)CN)C(=O)N[C@@H](CCCNC(=N)N)C(=O)N[C@@H](CCC(N)=O)C(=O)N[C@@H](C)C(=O)N[C@@H](CCCNC(=N)N)C(=O)N[C@@H](CCC(N)=O)C(=O)O [iodine-125 labelled] | – | H2-Ld-huIL-6 Tg Balb/c mice, AA amyloidosis, spleen | intravenous, 4 h, decay-corrected | – | tissue uptake | 12.5 %ID/g
CCOc1c([C@H](C)n2nc(C)c3c(N)ncnc32)cc(Cl)c(F)c1[C@@H]1CNC(=O)C1 | – | patients, monotherapy | oral, 20 mg once daily, cycle 1 day 15 | – | half-life | 9 ± 3.4 h
CN1CCCC1CCNS(=O)(=O)c1ccc2c(c1)CN(CC1CCCCC1)CC2 (stereo not drawn) | – | wild-type mouse, pons/cerebellum | oral in diet, 0.0002% in diet, 6 months | – | Cmin | 0.955 ng/g
CC#CC(=O)N1CCC[C@H]1c1nc(-c2ccc(C(=O)Nc3ccccn3)cc2)c2c(N)nccn12 | – | PBS | 100 µM, 23 h, pH 8, 37 °C, with: cysteine 10 mM | – | cysteine adduct formation | 66%
CCc1c(-c2ccccc2)c(-c2ccccc2)nn1-c1ccccc1-c1cccc(OCC(=O)O)c1 | – | Sprague-Dawley rat, bone | oral, 10 mg/kg, 4 h | – | concentration | 2050 ng/g and 1900 ng/g
CC(C)(C(=O)N1CCOc2c(C#N)cncc2C1)C(F)F | item: vessel puncture site pain | healthy humans, both sexes | oral, 10 mg single dose | – | subjects with TEAE | 0%
O=C1CCc2ccc(OCCCCN3CCN(c4cccc(Cl)c4Cl)CC3)cc2N1 | item: Sedation | genotyped patients, CYP2D6 intermediate metabolizers | dose not given, long-acting oral or depot | – | adverse event incidence | 5.7%
OC[C@H]1O[C@@H](c2ccc(F)c(Cc3cc4ccccc4s3)c2)[C@H](O)[C@@H](O)[C@@H]1O | – | Japanese patients, type 1 diabetes | oral, 25 mg/day, onset day 3 | baseline: patients | hypoglycaemia-related adverse event | 5%
O=C(O)CN1CCCN2CCN(Cc3ccccc3)CCCN(CC1)Cc1cccc(n1)C2 | – | 64Cu complex in rat plasma | 12 h, 37 °C | – | intact complex | 99%
CSc1cc(C)nc(SC)c1NC(=O)CN1CCN(CCSc2nc3ccccc3[nH]2)CC1.Cl | – | mouse Crl:CD1 (ICR), female, cerebrum | intranasal, 10 µL of GA solution once daily for 7 days, 120 min after last dose | – | tissue concentration | 1.5 ng/g and 1 ng/g and 1.6 ng/g
CCOC(=O)N1C[C@@H](C2CCCC2)N[C@@H](c2ccc(-c3ccccc3)cc2)C1 | shake-flask, 1-octanol/buffer | – | pH 7.4 | – | logD | > 4.7
NS(=O)(=O)c1ccc(NN=C2C(=O)Nc3ccc4[nH]nnc4c32)cc1 | – | octanol/buffer | 67 µM, pH 7.4 | – | logD | 1.65
CCOC(=O)N1C[C@@H](c2ccc(C(F)(F)F)cc2)N[C@@H](c2ccc(N3CCCC3)cc2)C1 | shake-flask, 1-octanol/buffer | – | pH 7.4 | – | logD | > 4.7
C=CC(=O)NC1CCN(c2ncc3ncnc(Nc4ccc(Oc5ccc6c(c5)ncn6C)c(C)c4)c3n2)CC1 | – | healthy male volunteers | oral, 60 mg, 2 weeks | – | subjects with serious adverse events | 0%

Compound | assay | system | setting | how to read | measurement | result
CCO[C@H]1CCN(Cc2c(OC)cc(C)c3[nH]ccc23)[C@H](c2ccc(C(=O)O)cc2)C1 | – | human mild hepatic impairment, plasma | oral, 200 mg single dose, geometric mean | – | total half-life | 25.4 h
Cc1ccc([C@@H]2COC[C@H](c3ccc(C(C)(C)C)cc3)N2)cc1 | shake-flask, 1-octanol/buffer | – | pH 7.4 | – | logD | > 4.7
Cc1ccc([C@@H]2O[C@H](CO)[C@@H](O)[C@H](O)[C@H]2O)cc1Cc1ccc(-c2ccc(F)cc2)s1 | – | Japanese type 2 diabetes patients | 100 mg, day 3, 24 h urine collection | baseline: baseline | urinary chloride excretion change | 19.1 mEq
O=C(O)CCCOc1ccc([18F])cc1-c1cc(-c2ccccc2C(F)(F)F)n(-c2ccccc2)n1 | gamma counting | male ddY mice, kidney | intravenous, 2.1 MBq, 60 min | – | radioactivity uptake | 2.1 ± 0.38 SUV
O=C(Nc1ccc(S(=O)(=O)Nc2ncccn2)cc1)c1c(Cl)cccc1Cl | – | octanol/buffer | pH 7.4 | – | logD | 0.83
Cc1ccc(N(C)C(=O)/C=C/c2ccco2)cc1 | cold plate test | mouse | oral, 30 mg/kg single dose, 30 min | – | licking latency | 19.4 ± 0.5 s
CCOC(=O)N1C[C@@H](c2ccccc2O)N[C@@H](c2cccc(Br)c2)C1 | shake-flask, 1-octanol/buffer | – | pH 7.4 | – | logD | > 4.7
COc1ccc(NC(=O)CSc2nnc(-c3ccncc3)[nH]2)cc1 | – | octanol/buffer | pH 7.4 | – | logD | 1.94
O=C(Nc1ccc(Cl)c(Cl)c1)Nc1ccc(Cl)cc1O | reverse phase LC, C18 | acetonitrile gradient, 0.1% formic acid | converted from retention time | baseline: Valko CHI standards | chromatographic hydrophobicity index | 118
CC(C)C[C@H](NC(=O)[C@H](CC(C)C)NC(=O)[C@H](Cc1c[nH]c2ccccc12)NC(=O)[C@H](CCC(=O)O)NC(=O)[C@@H](NC(=O)[C@H](Cc1ccccc1)NC(=O)[C@H](CCC(=O)O)NC(=O)[C@H](CCCCNC(=O)COCCOCCNC(=O)COCCOCCNC(=O)CC[C@H](NC(=O)CCCCCCCCCCCCCCCCCCC(=O)O)C(=O)O)NC(=O)[C@H](C)NC(=O)[C@H](CCCCN)NC(=O)[C@H](CCCCN)NC(=O)[C@H](CCC(=O)O)NC(=O)[C@H](CC(=O)O)NC(=O)[C@H](CC(C)C)NC(=O)[C@H](Cc1ccc(O)cc1)NC(=O)[C@H](CCCCN)NC(=O)[C@H](CO)NC(=O)[C@H](Cc1ccc(O)cc1)NC(=O)[C@H](CC(=O)O)NC(=O)[C@H](CO)NC(=O)[C@@H](NC(=O)[C@H](Cc1ccccc1)NC(=O)[C@@H](NC(=O)CNC(=O)[C@H](CCC(N)=O)NC(=O)C(C)(C)NC(=O)[C@@H](N)Cc1c[nH]cn1)[C@@H](C)O)[C@@H](C)O)C(C)C)C(=O)N[C@@H](CCC(=O)O)C(=O)NCC(=O)NCC(=O)N1CCC[C@H]1C(=O)N[C@@H](CO)C(=O)N[C@@H](CO)C(=O)NCC(N)=O | – | human, plasma | subcutaneous, 16 mg weekly, week 20 | – | %AUC extrapolated | 1%
NC1(C(=O)N[C@@H](CCO)c2ccc(Cl)cc2)CCN(c2nc[nH]c3nccc2-3)CC1 | – | human mCRPC patients | oral, twice daily, 4/7 days, any grade, treatment-related, with: enzalutamide 160 mg daily | – | lower abdominal pain incidence | 6.7%
CN(CCC(=O)O)C(=O)c1ccc2c(c1)CC[C@@H]1[C@@H]2CC[C@]2(C)C(c3cncc(F)c3)=CC[C@@H]12 | – | premenopausal women, endometriosis pain, serum | 60 mg twice daily, visit 4, mean | baseline: baseline | direct bilirubin change | 0.21 mg/dL
NC1(C(=O)N[C@@H](CCO)c2ccc(Cl)cc2)CCN(c2nc[nH]c3nccc2-3)CC1 | – | human patients aged >=sample A years | 400 mg | – | likelihood of grade >=3 AE | 56.7%
C/C=C/C[C@@H](C)C(=O)[C@H]1C(=O)N[C@@H](C(C)C)C(=O)N(C)CC(=O)N(C)[C@@H](CC(C)C)C(=O)N[C@@H](C(C)C)C(=O)N(C)[C@@H](CC(C)C)C(=O)N[C@@H](C)C(=O)N[C@H](C)C(=O)N(C)[C@@H](CC(C)C)C(=O)N(C)[C@@H](CC(C)C)C(=O)N(C)[C@@H](C(C)C)C(=O)N1C | – | Sprague Dawley rat, plasma | intravenous infusion, 0.89 mg/h/kg, 4 h, 4.5 h constant infusion | – | free plasma concentration | 431 ng/mL
O=C(Nc1nc2cccc(-c3ccc(CN4CCS(=O)(=O)CC4)cc3)n2n1)C1CC1 | item: blood calcium increased | rheumatoid arthritis patients | oral, 30 mg once daily, 4 weeks, any relatedness | – | treatment-emergent adverse events | 0%
CC(C)C[C@H](NC(=O)[C@@H](Cc1c[nH]c2ccccc12)NC(=O)[C@H](Cc1ccc(O)cc1)NC(=O)[C@H](CO)NC(=O)[C@H](Cc1c[nH]c2ccccc12)NC(=O)[C@H](Cc1c[nH]cn1)NC(=O)[C@@H]1CCC(=O)N1)C(=O)N[C@@H](CCCNC(=N)N)C(=O)N1CCC[C@H]1C(=O)NCC(N)=O | – | Chinese CPP children, boys | intramuscular, 22.5 mg, 12 months, day 1, month 6 | – | patients, drug-related nocturnal emission | 25%
CCOC(=O)N1C[C@@H](c2cc(F)c(O)c(F)c2)N[C@@H](c2ccc([C@H](C)CC)cc2)C1 | shake-flask, 1-octanol/buffer | – | pH 7.4 | – | logD | > 4.7
CN1C(=O)[C@@H](NC(=O)c2nnc(Cc3ccccc3)[nH]2)COc2cccnc21 | phase I multiple ascending dose | human, male and female | oral, 600 mg, 14 days | – | participants with any TEAE | 75%
O=C(Nc1cnccc1Cl)N1CCN(Cc2ccc3c(c2)OC(F)(F)O3)CC1 | item: Haematoma | human healthy young women | 100 mg, multiple dose | – | adverse event incidence | 33.3%
CNC(=O)c1cc(Oc2ccc(NC(=O)Nc3cc(C(C)(C)C)nn3-c3ccc4ncccc4c3)c(F)c2)ccn1 | item: any AESI, worst grade ≥2 | human patients | oral, dose not given, high Cmax subgroup, cycles 1-2 | – | patients with adverse events | 17%
CCc1nnc(NS(=O)(=O)c2ccc(NC(=O)c3ccc(F)cc3)cc2)s1 | – | octanol/buffer | pH 7.4 | – | logD | 1.02
CNCc1ccc(-c2[nH]c3cc(F)cc4c3c2CCNC4=O)cc1 | item: any adverse event | human patients | oral, 600 mg twice daily, grade 1 | – | patients with adverse event | 23.1%

A few entries again:
Compound | assay | system | setting | how to read | measurement | result
CCc1c(-c2ccccc2)c(-c2ccccc2)nn1-c1ccccc1-c1cccc(OCC(=O)O)c1 | – | Sprague-Dawley rat, bone | oral, 10 mg/kg, 4 h | – | concentration | 2050 ng/g and 1900 ng/g
C[C@H](NC(=O)[C@H](CCC(N)=O)NC(=O)[C@H](C)NC(=O)[C@H](CCCNC(=N)N)NC(=O)[C@H](CCC(N)=O)NC(=O)[C@H](C)NC(=O)[C@H](CCCNC(=N)N)NC(=O)[C@H](CCC(N)=O)NC(=O)[C@H](C)NC(=O)[C@H](CCC(N)=O)NC(=O)[C@H](CCCNC(=N)N)NC(=O)[C@H](C)NC(=O)[C@H](CCC(N)=O)NC(=O)[C@H](CCCNC(=N)N)NC(=O)[C@H](C)NC(=O)[C@H](CCC(N)=O)NC(=O)[C@H](C)NC(=O)[C@H](CCCNC(=N)N)NC(=O)[C@H](CCC(N)=O)NC(=O)[C@H](C)NC(=O)[C@H](CCCNC(=N)N)NC(=O)[C@H](CO)NC(=O)[C@H](Cc1ccc(O)c(I)c1)NC(=O)CNC(=O)CNC(=O)CN)C(=O)N[C@@H](CCCNC(=N)N)C(=O)N[C@@H](CCC(N)=O)C(=O)N[C@@H](C)C(=O)N[C@@H](CCCNC(=N)N)C(=O)N[C@@H](CCC(N)=O)C(=O)O [iodine-125 labelled] | – | H2-Ld-huIL-6 Tg Balb/c mice, AA amyloidosis, spleen | intravenous, 4 h, decay-corrected | – | tissue uptake | 12.5 %ID/g
Cc1ccc([C@@H]2O[C@H](CO)[C@@H](O)[C@H](O)[C@H]2O)cc1Cc1ccc(-c2ccc(F)cc2)s1 | – | Japanese type 2 diabetes patients | 100 mg, day 3, 24 h urine collection | baseline: baseline | urinary chloride excretion change | 19.1 mEq
